Results collected from several papers.
Parts stem from different laboratories: compare values within a part only. Changes are numbered by the printed parent chain.

Set 1
Target: RNA binding protein fox-1 homolog 2, RRM domain, GST-SBP tag (RBFOX2, Homo sapiens, UniProt O43251-10, residues 100-194)
Method: RNA Bind-n-Seq
Molecule type: RNA
Matrix: in vitro
Concentration: 365 nM
Setting: natural RNA segment, single round, ends assumed
Reference: no-protein control
Direction: higher = stronger binding
Shared flanks, not repeated: GGGAGUUCUACAGUCCGACGAUC … UGGAAUUCUCGGGUGCCAA
Residues (chain): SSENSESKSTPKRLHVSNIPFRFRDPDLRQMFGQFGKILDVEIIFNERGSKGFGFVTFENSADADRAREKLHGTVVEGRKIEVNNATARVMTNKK
Sequence	RBNS enrichment (R)
UUGGCCAAAUAAAUUACUUUCCUUGAAUAUCCAGGAAUCUUUUAGUCUAAAGCAAUGAGGAGUUAUCACCUCAUCCUCAAACUCCAACAAGAUCUAUGCCUUAGUGUUGU	0.323
CAAUGGUACUGUUUCUUAGUGUUUUCAAUUGGAACAUAUCUUGUCUCACAGAGCUUUAAAUUAUUCUCCUAAGUUUCUUGUGGAUGAAGCGCUCUCAUCUAACCUAUGUU	0.402
CAGAACUAUAAAGAUAAUUAGAGUUAAAAGUUGUUUAAAUUGUGCCCUUAAAUACAGCAGAACCUGGAGAAGGUCAUACUUCAAAGGUCGAUUUUGAGUCCGAAUAAAGA	0.304
AUCUAGCUCCUGUAUAUAUAUUUUAUUGCAUGCACUGUGACCUUGGGGGGAGAACAGAAGGGGGACGACGCCCCCGCACCUCCUGCGAUCUGGCUGGCUUGGAUCUCGUU	10.1
UAUUUUAAAAUGUAAUGUUACUUAUGAAAAGUAUUUUGCUUAAGGUUGUGUGUGUAUUGUGUAUAUACCUCAAGUUCAAGUUAAUGGCAUUGAUUUAUGUUCCAGACAAA	0.421
GGGUUUUAAUCCAGGACAUAAGCAGAAAUCGCUCUCUUUAGUGAAGGGAGCAGCUGAUUUUUUCAUUUUCUUGCCACAAGGCAUGUUGACAGAAGAAUAAAAUUCUUUGU	0.585
AGUUGUGAGUGAGCUCAGCUCCUUCAGGCCUGGCCUCUCCCAGAACAGAGUGAAGCCCCUGCCCUGGACCCCUGCUCCCUUCUACCCUUGAGGGCCACCAAUGGAAGAGC	0.414
GAAAUGCUUUUAACUCAAACAGCAACAUCUUAGCUAUUUGUUAGUUCUCUUUUGUUGUCUUAUCAAAGUUUAAUGGAGACACUUUCAUAAUUGUUGUUGUGUGUACAUUU	0.463
GGCUGAGGUCGUGCCCUGCUGGGCUGCCCUCCAAUGUGCCUCACGCAAUAAAGAAUUCUCCCUCUGCGCUUUCCCAUCAGCUCUGUAUCUUGGGAUGGGUCAGCCAUCUU	1.3
GAGGACAUGACUCCAAGGUGCUGGGAGAUGCACCAGUCUUGCGCAGCAGCACCUGUGGUCUGGCCUCUGCCUUGCCCUCAUGCAGCCAUGAGCUGCCUUAAGGGGAAGAG	1.9
AAGAAAGAAUAAUUUCCAUUAAGUAGAAUUCCAGUUGUCUUUCUGUUUCUAAAACACAGAACUUACAAGAGCCACAGGAGCCAAUUAUAGCACCUGACAGAAUACUUCUC	0.672
GGCCGCCGUGGGUGUGCGUGUGUGCGACUCAGAAUGUGGGUGGUGGCGCCCUCAGAGACCCUGGCAUUGGCUGAGCCAAUGUUGGGCCUUCUGAAAAGAAGCCCAGGGGA	0.784

Set 2
Target: CCNF, cyclin fold, Cln2 fusion (human)
Method: yeast growth competition, sequencing
Matrix: yeast
Setting: strong parent motif
Reference: not given
Direction: higher = stronger binding
Starting sequence: GMNC docking peptide (human); KNAKRNLSSEFAN
Change	normalised enrichment score
KNAKRNLPSEFAN [S8P]	0.355
KNATRNLSSEFAN [K4T]	0.495
KNAKRNLSSFFAN [E10F]	0.844
KNAARNLSSEFAN [K4A]	0.597
KNAKRNLTSEFAN [S8T]	0.486
KNAKRNLSMEFAN [S9M]	1.61
KNAKRNLSSEFLN [A12L]	0.718
KNAKSNLSSEFAN [R5S]	0.959
KSAKRNLSSEFAN [N2S]	0.921
KNAKRNLSSKFAN [E10K]	0.423
KNAKRNLLSEFAN [S8L]	1.56
KNAKRNLSNEFAN [S9N]	0.714
KNAKRNLSSETAN [F11T]	0.184
KNAKRNGSSEFAN [L7G]	0.456
KNAKRALSSEFAN [N6A]	0.605
KNARRNLSSEFAN [K4R]	1.96
KNNKRNLSSEFAN [A3N]	0.716

Set 3
Target: Sal-like protein 4, full length isoform B (SALL4, Homo sapiens, UniProt Q9UJQ4-2, residues 1-616)
Method: universal PBM
Molecule type: double-stranded DNA, one strand shown
Matrix: in vitro
Concentration: not given
Setting: 8-mer, flanks averaged, mean of replicates
Direction: higher = stronger binding
Sequence	E-score
CTGTTTGC	0.086
CAGCCGTC	-0.286
AATTCTAT	0.185
AAGCAAAG	0.141
TCAAACGA	0.0734
ACTGAAAG	0.0671
CGATCGCG	-0.0876
CGGATGGA	-0.00876
GACCCAAA	0.0326
AAATCTGG	0.0345
CGATGAAG	0.0298
AATCTTCA	0.219
AGTTATGG	0.332
CGCCATGC	-0.141
AAGTCTGT	0.141
CCGCTTTA	0.122
ATCGAAAC	-0.0737
ATGTACTG	0.113
CCAACGTA	-0.00064
CGGCATTA	0.0131
CCAAAATA	0.253

Single results of other studies
Molecule	target	test	test system	setting	scale	quantity	result
PhoQ, residues 284 288 289 292 302 303 SNSSNI	PhoP, residues 12 14 15 18 19 LHHVQ (Escherichia coli, UniProt P23836)	Sort-seq, measured: YFP reporter	E. coli	PhoQ-PhoP variant library, together with: 10 µM Mg2+	reference: high Mg2+ state, higher = stronger signaling	fold induction	10

Some of these lines once more (set 2):
Change	normalised enrichment score
KNAKRNLTSEFAN [S8T]	0.486
KNAKRNLSMEFAN [S9M]	1.61
KNAKRNLSSEFLN [A12L]	0.718
KNAKSNLSSEFAN [R5S]	0.959
KSAKRNLSSEFAN [N2S]	0.921
KNAKRNLSSKFAN [E10K]	0.423
KNAKRNLLSEFAN [S8L]	1.56
KNAKRNLSNEFAN [S9N]	0.714
